# Assay results from different studies.
# Compare with care: the assays were run in different laboratories. Numbers after ± are the reported error.
Structure (SMILES),cell line,read-out,method,time,notes,IC50
NC(=O)c1ccc(-c2ccccc2Cl)c2c3c([nH]c12)CCC(N)C3 (stereo not shown),RBE,cell growth or viability,,96 h,,1.73 nM
O=C1C=CC(=O)N1CCCCCCOCc1cn(CCCCCCN2C(=O)C=CC2=O)nn1,L929,cell growth or viability,,72 h,,1800 nM
C=CC(=O)N1CCCC(n2c(=O)c3ncccc3n(Cc3ccc(Oc4ccccc4)cc3)c2=O)C1 (stereo not shown),RCK8,cell growth or viability,MTT,72 h,,10000 nM
O=C(NCc1cc(F)cc(F)c1)[C@@]1(O)CCN(c2ccc3[nH]ccc3c2)C1=O,Anal PDX-derived tumour cells,colony formation,soft agar clonogenic,8-10 days,,130 nM
CNS(=O)(=O)Nc1nccc(Cc2c(C)c3ccc(Oc4ncccc4F)cc3oc2=O)c1F,OAW-28,cell viability,,7 days,,11.4 nM
C[C@@H](c1ccc2ccccc2c1)N1C(=O)C2=Nc3ccccc3CN2C1=S,"CEM/ADR5000 (P-gp overexpressing, multidrug resistant)",cell viability,resazurin,72 h,,242 ± 24 nM
COC(=O)N1c2ccc3c(nc(Cc4ccccc4)n3[C@@H]3CCC[C@@H](C(=O)O)C3)c2CC[C@@H]1C,HCC1954,cell growth or viability,ATP luminescence,10 days,,2100 nM
CC(C)c1ccc(N(C)c2ccc3c(c2)OCC[C@H]3CNc2cnccc2C(=O)O)cc1,SK-MEL-1,cell growth or viability,ATP luminescence,7 days,,9.24 nM
C[C@H](c1ccccc1)N1C(=O)C2=Nc3ccccc3CN2C1=S,"CEM/ADR5000 (P-gp overexpressing, multidrug resistant)",cell viability,resazurin,72 h,,489 ± 16 nM
CCOc1cncc(-c2ccc(NC(=O)C3(c4ccnc(NS(=O)(=O)C5CC5)n4)CCOCC3)nc2)n1,OCI-AML-3,cell proliferation,CellTiter-Glo,72 h,,27 nM
C=C(C)C(=O)NCCCCCCCCOCc1cn(CCCCCCCCNC(=O)C(=C)C)nn1,L929,viability,alamarBlue,3 days,,> 50000 nM
Cc1ccc([N+](=O)[O-])cc1S(=O)(=O)N(C)/N=C/c1cnc2ccc(Br)cn12,SNB-19,,MTS,,NCI60 panel,385 nM
O=C1C(=NN=c2[nH]ccs2)c2cc(Cl)ccc2N1CCn1ncc2c(=O)[nH]cnc21,BALB/3T3 clone A31,cell growth or viability,SRB,72 h,,2.15 µg/mL
O=C(NCC1(c2nc(-c3ccccc3)cs2)CCOCC1)c1cccc(-c2noc(C(F)(F)F)n2)c1,OCI-Ly10,cell growth or viability,CCK-8,7 days,,> 20000 nM
CC(C)=CC1OC(C)(C)C2C=C3C(=O)C(Cl)=CC(O)C3C3C(O)C4OC4C(=O)C132 (stereo not shown),SK-MEL-30,cell growth or viability,MTS,,,1970 nM
O=C1C=CC(=O)N1CCCCCCCCCCOCc1cn(CCCCCCCCCCN2C(=O)C=CC2=O)nn1,L929,cell growth or viability,,72 h,,> 50000 nM

# Some of these lines once more:
Structure (SMILES),cell line,read-out,method,time,notes,IC50
CCOc1cncc(-c2ccc(NC(=O)C3(c4ccnc(NS(=O)(=O)C5CC5)n4)CCOCC3)nc2)n1,OCI-AML-3,cell proliferation,CellTiter-Glo,72 h,,27 nM
C=C(C)C(=O)NCCCCCCCCOCc1cn(CCCCCCCCNC(=O)C(=C)C)nn1,L929,viability,alamarBlue,3 days,,> 50000 nM
